{"data": "Measured values gathered from unrelated publications", "note": "A part holds a random share of what one study measured. Several values in a cell are separate wells, animals, samples, runs or records."}
{"data": "Set 1", "target": "Ephrin type-B receptor 3 (EPHB3, Homo sapiens, UniProt P54753)", "read-out": "enzyme activity", "action": "inhibitor", "tested at": "0.5 µM", "relative to": "control", "UniProt P54753, sequence (whole entry, looked up)": "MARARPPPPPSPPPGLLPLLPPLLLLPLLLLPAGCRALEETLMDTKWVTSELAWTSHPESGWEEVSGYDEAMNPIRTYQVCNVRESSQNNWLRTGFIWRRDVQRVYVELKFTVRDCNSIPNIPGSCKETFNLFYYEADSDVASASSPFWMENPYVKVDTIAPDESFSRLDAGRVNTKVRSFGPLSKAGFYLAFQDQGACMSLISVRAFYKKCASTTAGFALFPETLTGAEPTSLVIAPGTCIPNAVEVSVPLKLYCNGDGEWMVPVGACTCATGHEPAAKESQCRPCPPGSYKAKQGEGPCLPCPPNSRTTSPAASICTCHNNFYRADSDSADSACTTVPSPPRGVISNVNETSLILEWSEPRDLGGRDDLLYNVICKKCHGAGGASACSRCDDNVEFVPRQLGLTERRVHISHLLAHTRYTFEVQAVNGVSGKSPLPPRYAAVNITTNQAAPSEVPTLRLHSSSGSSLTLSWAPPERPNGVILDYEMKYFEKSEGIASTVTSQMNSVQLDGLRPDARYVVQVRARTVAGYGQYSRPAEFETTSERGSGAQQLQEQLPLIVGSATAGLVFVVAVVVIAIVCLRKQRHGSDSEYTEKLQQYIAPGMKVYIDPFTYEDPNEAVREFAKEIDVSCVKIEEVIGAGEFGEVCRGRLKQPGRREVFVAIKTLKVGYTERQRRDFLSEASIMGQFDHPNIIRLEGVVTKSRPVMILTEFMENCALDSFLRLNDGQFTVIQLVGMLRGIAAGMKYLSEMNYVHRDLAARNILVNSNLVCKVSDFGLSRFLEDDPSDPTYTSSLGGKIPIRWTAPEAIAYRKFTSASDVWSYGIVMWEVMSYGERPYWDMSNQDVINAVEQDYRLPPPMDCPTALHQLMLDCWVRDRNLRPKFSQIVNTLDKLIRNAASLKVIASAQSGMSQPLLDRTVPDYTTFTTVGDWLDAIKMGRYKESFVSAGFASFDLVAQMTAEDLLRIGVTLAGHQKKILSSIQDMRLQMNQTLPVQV"}
{"SMILES": "CC[n+]1c(/C=C/N(C)c2ccccc2)n(-c2ccccc2)c2ccc(-c3nc4ccccc4s3)cc21", "remaining activity": "102%"}
{"SMILES": "CC#CC(=O)Nc1cc2c(Nc3ccc(F)c(Cl)c3)ncnc2cn1", "remaining activity": "85.4%"}
{"SMILES": "CSc1nc(-c2ccnc(N[C@@H](C)c3ccccc3)c2)c(-c2ccc(F)cc2)[nH]1 (racemic)", "remaining activity": "94%"}
{"SMILES": "CCCC(=O)Oc1ccc2[nH]c(C(=O)c3cc4ccccc4[nH]3)cc2c1", "remaining activity": "94.2%"}
{"SMILES": "Cc1ccc(NC2=CC(=O)c3sc(C)nc3C2=O)cc1", "remaining activity": "89.2%"}
{"SMILES": "Nc1ncnc2c1cnn2-c1ccccc1", "remaining activity": "93.5%"}
{"data": "Set 2", "Compound": "Cc1cc2c(C(N)=O)c(N)n(-c3c(C)ccc(O)c3C)c2nc1C", "relative to": "DMSO"}
{"cell line": "NCI-H69", "assay": "MTT", "setting": "1.11 µM, 5 d", "cell growth": "97.2% and 96.6%"}
{"cell line": "NCI-H69", "assay": "MTT", "setting": "1.52 nM, 5 d", "cell growth": "85.9% and 95%"}
{"cell line": "NCI-H446", "assay": "Vi-Cell counting", "setting": "3.33 µM, 5 days", "cell growth": "53.3% and 45.9%"}
{"cell line": "NCI-H1048", "assay": "MTT", "setting": "371 nM, 5 d", "cell growth": "58.5% and 75.1%"}
{"cell line": "NCI-H446", "assay": "Vi-Cell counting", "setting": "13.7 nM, 5 days", "cell growth": "99.6% and 101%"}
{"cell line": "NCI-H1048", "assay": "MTT", "setting": "4.57 nM, 5 d", "cell growth": "99.2% and 92.3%"}
{"cell line": "NCI-H1048", "assay": "MTT", "setting": "1.11 µM, 5 d", "cell growth": "36.7% and 32.8%"}
{"data": "Set 3", "species": "mouse", "medium": "microsomes or S9", "tested at": "2 µM", "time": "0.5 h"}
{"Compound": "Cc1ccccc1S(=O)(=O)Nc1ccc2nc(N3CCN(CC(=O)NC(C)(C)C)CC3)cc(C(=O)O)c2c1", "remaining compound [%]": 86.1}
{"Compound": "Cc1cc(Br)ccc1OCCOCCN1CC(C)OC(C)C1 (centres unmarked)", "remaining compound [%]": 0.159}
{"Compound": "CC(C)(NCc1ccncc1Cl)c1ccc(F)cc1Cl", "remaining compound [%]": 1.91}
{"Compound": "O=c1c2c3nc4ccccc4nc3n(C3CCCC3)c2ncn1Cc1ccco1", "remaining compound [%]": 38.6}
{"Compound": "Cc1ccc(C(=O)N2CCN(C(=O)c3ccc(C)cc3)C2)cc1", "remaining compound [%]": 30.7}
{"Compound": "CO[C@H]1C[C@H]2CC(C)(O)[C@@H](/C=C/c3ccc(-c4cccc(F)c4)cn3)[C@@H]2C[C@H]1NC(=O)OC(C)(C)C (some centres unmarked)", "remaining compound [%]": 80.9}
{"Compound": "CC1=CCC(c2nnco2)C(c2ccc(F)cc2)C1 (centres unmarked)", "remaining compound [%]": 22}
{"Compound": "COC(=O)c1cc(Br)c(=O)n(-c2nccs2)c1", "remaining compound [%]": 0.451}
{"Compound": "CN1CCC2(CCCN2Cc2ccc(Cl)cc2Br)CC1", "remaining compound [%]": 60.4}
{"Compound": "COc1cc(Br)c(S(=O)(=O)NC2CCN(C(C)=O)CC2)cc1OC", "remaining compound [%]": 38.3}
{"Compound": "CCOc1ccc(-n2nc3ccc(N)cc3n2)cc1", "remaining compound [%]": 0.851}
{"data": "Set 4", "cell line": "normal adjacent epithelium patient-derived organoids", "method": "CellTiter-Glo", "tested at": "1 µM", "setting": "mean of five organoid lines", "relative to": "DMSO"}
{"Structure (SMILES)": "Cc1c(C(=O)O)cc(-c2ccc(C3CCNCC3)cc2)c2ccc(-c3ccc(C(F)(F)F)cc3)cc12", "viability": "110%"}
{"Structure (SMILES)": "CCOCCn1cc(C(=O)Nc2ccc(-n3nc(-c4cccnc4)cc3C(F)(F)F)cn2)ccc1=O", "viability": "105%"}
{"Structure (SMILES)": "CC(=O)C1=C(C)N(c2cccc(C(F)(F)F)c2)C(=O)N[C@@H]1c1ccc(C#N)nc1", "viability": "107%"}
{"Structure (SMILES)": "O=C(NS(=O)(=O)c1ccc(NCC2CCOCC2)c([N+](=O)[O-])c1)c1ccc(N2CCN(Cc3ccc(C(F)(F)F)cc3-c3ccc(Cl)cc3)CC2)cc1Oc1cnc2[nH]ccc2c1", "viability": "104%"}
{"Structure (SMILES)": "Cc1ccc2[nH]c(CNCCCc3ccncc3)cc(=O)c2c1", "viability": "109%"}
{"Structure (SMILES)": "Cc1ccccc1Oc1cc(-n2c(=O)cc(C(F)(F)F)[nH]c2=O)c2ccccc2c1Cl", "viability": "109%"}
{"Structure (SMILES)": "O=C(Nc1cnc(Oc2ccc(F)cc2)nc1)N1CCc2ncccc2[C@@H]1c1ccc(F)cc1", "viability": "128%"}
{"Structure (SMILES)": "CCS(=O)(=O)c1cc2cc(C[C@](O)(CC(C)(C)c3ccc(F)cc3C(N)=O)C(F)(F)F)[nH]c2cn1", "viability": "104%"}
{"Structure (SMILES)": "NS(=O)(=O)c1cc(NC(=O)C2(c3ccccc3Cl)CC2)ccc1Oc1cccc(Cl)c1", "viability": "102%"}
{"Structure (SMILES)": "C[C@H](NC(=O)Nc1cc2[nH]ncc2c(CO)n1)c1ccccn1", "viability": "103%"}
{"Structure (SMILES)": "CN1CCN(C(=O)C(C)(C)c2ccc(C(=O)Nc3cn4cc(-c5ccncc5)ccc4n3)cc2)CC1", "viability": "49.7%"}
{"Structure (SMILES)": "C[C@@H]1CN(c2cc(-c3nn(C)c4ccc(OC5(C)CC5)cc34)ncn2)C[C@H](C)O1", "viability": "99.7%"}
{"Structure (SMILES)": "Cn1nc(C(=O)NCc2ccc(C(=O)O)cc2)cc1-c1ccc2[nH]ccc2c1", "viability": "106%"}
{"Structure (SMILES)": "CO[C@@H](C)c1c(Nc2ccc([C@@H](N(C)C(=O)C3CCS(=O)(=O)CC3)C(F)(F)F)cc2)cnc2cc(Cl)nn12", "viability": "117%"}
{"note": "For quick reference, copied from above (set 2):"}
{"cell line": "NCI-H1048", "assay": "MTT", "setting": "371 nM, 5 d", "cell growth": "58.5% and 75.1%"}
{"cell line": "NCI-H446", "assay": "Vi-Cell counting", "setting": "13.7 nM, 5 days", "cell growth": "99.6% and 101%"}
{"cell line": "NCI-H1048", "assay": "MTT", "setting": "4.57 nM, 5 d", "cell growth": "99.2% and 92.3%"}
{"cell line": "NCI-H1048", "assay": "MTT", "setting": "1.11 µM, 5 d", "cell growth": "36.7% and 32.8%"}
